# Experimental data pooled from the literature.
# A part holds a random share of what one study measured.

# Set 1
# Target: Histone acetyltransferase KAT6A, winged helix 1, GST fusion (KAT6A, Homo sapiens, UniProt Q92794, residues 1-85)
# Method: protein binding microarray
# Form: double-stranded DNA, one strand shown
# Sample: in vitro
# Concentration: not given
# Setting: 8-mer, flanks averaged, mean of 2 arrays, mostly near background
# Baseline: not given
# Direction: higher = stronger binding
# Target sequence (chain): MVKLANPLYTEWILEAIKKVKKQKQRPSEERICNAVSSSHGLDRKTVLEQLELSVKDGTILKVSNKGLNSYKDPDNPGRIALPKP
Oligonucleotide,E-score
CGCTGGAC,0.102
CTGCCTCC,0.044
AATCAGTA,-0.148
GTTCCGAA,0.0686

# Set 2
# Target: RNA binding protein fox-1 homolog 2, RRM domain, GST-SBP tag (RBFOX2, Homo sapiens, UniProt O43251-10, residues 100-194)
# Method: RNA Bind-n-Seq
# Form: RNA
# Sample: in vitro
# Concentration: 365 nM
# Setting: natural RNA segment, single round, ends assumed
# Baseline: no-protein control
# Direction: higher = stronger binding
Oligonucleotide,RBNS enrichment (R)
GGGAGUUCUACAGUCCGACGAUCAGAUCAAACAGGAAAUUGAAAGCCACUGAACUAUGCAGCAUUUCAGUUUUCAUUUAAACACUUAGUUCAGAAACCUUAAAGGAUUUGAAUAUUUCAAAUUGCACACGUCAUGGAAUUCUCGGGUGCCAA,1.24
GGGAGUUCUACAGUCCGACGAUCUCAGACUCUCAGUCCUCAGAUGUGGAAAUAAAACAAAACACCUGUAUGGCUGCCAUUCUCUUCAGCCCUCGCUCUCCCCUUUCCACAGCCUCCACCCCUGACCCCCAUCCUGGAAUUCUCGGGUGCCAA,0.526
GGGAGUUCUACAGUCCGACGAUCAACUAGCAUAGGUCCCACAGAGAUGUGACAGAAUGAUGAAGCCGGCACCACAGCAUGUUGUUAUGUGAGGAGGCAAUCUGGAUAGCAAGCAUGUACCACAAAACAGUAGUUGGAAUUCUCGGGUGCCAA,34.7

# Set 3
# Target: Sal-like protein 4, full length isoform B (SALL4, Homo sapiens, UniProt Q9UJQ4-2, residues 1-616)
# Method: universal PBM
# Form: double-stranded DNA, one strand shown
# Sample: in vitro
# Concentration: not given
# Setting: 8-mer, flanks averaged, mean of replicates
# Direction: higher = stronger binding
# Residues (chain): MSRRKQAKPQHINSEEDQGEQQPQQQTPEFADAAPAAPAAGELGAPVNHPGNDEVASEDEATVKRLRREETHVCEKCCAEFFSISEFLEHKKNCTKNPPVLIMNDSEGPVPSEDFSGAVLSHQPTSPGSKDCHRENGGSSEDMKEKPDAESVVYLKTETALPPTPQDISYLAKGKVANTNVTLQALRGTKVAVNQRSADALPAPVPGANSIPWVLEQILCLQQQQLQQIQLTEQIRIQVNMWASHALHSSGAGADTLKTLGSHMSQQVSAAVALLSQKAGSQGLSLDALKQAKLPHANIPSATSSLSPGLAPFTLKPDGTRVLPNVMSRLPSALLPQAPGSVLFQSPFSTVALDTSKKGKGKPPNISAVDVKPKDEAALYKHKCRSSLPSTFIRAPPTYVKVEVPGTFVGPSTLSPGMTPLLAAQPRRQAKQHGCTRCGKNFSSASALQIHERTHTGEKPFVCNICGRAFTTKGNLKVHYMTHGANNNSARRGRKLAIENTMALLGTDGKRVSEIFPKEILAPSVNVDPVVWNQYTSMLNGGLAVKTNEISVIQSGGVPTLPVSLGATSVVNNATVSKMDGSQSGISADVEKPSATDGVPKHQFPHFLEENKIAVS
Oligonucleotide,E-score
GTTGCTCA,-0.066
CCTAAAGC,-0.157
CCCCGACA,-0.0334
GAAGGCTC,-0.194

# Mixed results
Substance,target,assay,system,conditions,how to read,measurement,result
"PhoQ, residues 284 288 289 292 302 303 TAVSDG","PhoP, residues 12 14 15 18 19 NIMAP (Escherichia coli, UniProt P23836)","Sort-seq, item: YFP reporter",E. coli,"PhoQ-PhoP variant library, with: 10 µM Mg2+","baseline: high Mg2+ state, higher = stronger signaling",fold induction,0.566

# For quick reference, copied from above (set 2):
Oligonucleotide,RBNS enrichment (R)
GGGAGUUCUACAGUCCGACGAUCUCAGACUCUCAGUCCUCAGAUGUGGAAAUAAAACAAAACACCUGUAUGGCUGCCAUUCUCUUCAGCCCUCGCUCUCCCCUUUCCACAGCCUCCACCCCUGACCCCCAUCCUGGAAUUCUCGGGUGCCAA,0.526
